Measured values pooled from the literature.
Protocols differ between the studies behind these lines. Values joined by “and” are separate records of one study, mostly repeats; a detail may differ. ± gives the spread as reported. ≈ marks a conversion by molar mass, not a printed value.
Sequence of UniProt Q9H3G5 (whole entry, looked up): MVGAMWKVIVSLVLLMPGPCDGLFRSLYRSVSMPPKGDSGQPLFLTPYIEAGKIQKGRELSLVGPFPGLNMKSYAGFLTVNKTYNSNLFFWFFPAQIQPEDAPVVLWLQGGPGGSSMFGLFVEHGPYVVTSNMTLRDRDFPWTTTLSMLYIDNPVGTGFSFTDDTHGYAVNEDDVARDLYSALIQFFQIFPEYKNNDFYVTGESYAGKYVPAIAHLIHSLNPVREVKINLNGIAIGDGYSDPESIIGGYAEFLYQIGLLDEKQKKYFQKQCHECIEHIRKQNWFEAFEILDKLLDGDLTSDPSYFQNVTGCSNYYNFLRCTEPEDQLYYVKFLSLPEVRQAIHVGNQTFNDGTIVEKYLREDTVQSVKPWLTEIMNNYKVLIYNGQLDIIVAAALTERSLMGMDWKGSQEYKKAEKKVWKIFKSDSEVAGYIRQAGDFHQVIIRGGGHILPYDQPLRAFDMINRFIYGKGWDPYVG

| Structure (SMILES) | target or system | test | test system | conditions | scale | measurement | result |
| --- | --- | --- | --- | --- | --- | --- | --- |
| O=C(O)/C=C/C(=O)O.Oc1cccc2[nH]cc(CCNC3CCCCC3)c12 |  |  | C57BL/6J mice | subcutaneous, 3 mg/kg, 30 min |  | distance travelled | 2390 ± 347 cm |
| CC[C@H](C)[C@H](NC(=O)CN)C(=O)NCC(=O)N[C@@H](C)C(=O)N[C@H](C(=O)N[C@@H](CC(C)C)C(=O)N[C@@H](CCCCN)C(=O)N[C@H](C(=O)N[C@@H](CC(C)C)C(=O)N[C@H](C(=O)N[C@H](C(=O)NCC(=O)N[C@@H](CC(C)C)C(=O)N1CCC[C@H]1C(=O)N[C@@H](C)C(=O)N[C@@H](CC(C)C)C(=O)N[C@H](C(=O)N[C@@H](CO)C(=O)N[C@@H](Cc1c[nH]c2ccccc12)C(=O)N[C@H](C(=O)N[C@@H](Cc1c[nH]cn1)C(=O)N[C@@H](Cc1c[nH]cn1)C(=O)N[C@@H](Cc1c[nH]cn1)C(=O)N[C@@H](Cc1c[nH]cn1)C(=O)N[C@@H](CCC(=O)O)C(=O)N[C@@H](CCC(=O)O)C(=O)N[C@@H](CS)C(N)=O)[C@@H](C)CC)[C@@H](C)CC)[C@@H](C)O)[C@@H](C)O)C(C)C)C(C)C | human red blood cells |  |  | pH 5.5 | reference: Triton X-100 | EC50 | 14 µM |
| c1ccc([C@@H]2C[C@H]2NC2CCNCC2)cc1 | HBL-1 |  |  | 0.1 µM, 120 h |  | viability | 124% |
| CC[C@H](C)[C@H](NC(=O)[C@H](C)NC(=O)[C@H](CCCCN)NC(=O)[C@H](CC(C)C)NC(=O)[C@H](C)NC(=O)[C@@H](NC(=O)[C@H](Cc1c[nH]cn1)NC(=O)[C@H](CC(C)C)NC(=O)[C@@H](NC(=O)[C@@H](NC(=O)[C@H](CCCCN)NC(=O)[C@H](C)NC(=O)[C@H](C)NC(=O)[C@H](CO)NC(=O)[C@H](CCCCN)NC(=O)[C@H](Cc1ccccc1)NC(=O)[C@@H](NC(=O)[C@H](CCCCN)NC(=O)[C@H](CC(C)C)NC(=O)[C@H](Cc1ccccc1)NC(=O)[C@H](CO)NC(=O)[C@H](CCCCN)NC(=O)[C@H](Cc1c[nH]c2ccccc12)NC(=O)[C@H](CCCCN)NC(C)=O)[C@@H](C)O)[C@@H](C)O)C(C)C)[C@@H](C)O)C(=O)N[C@@H](CO)C(=O)N[C@@H](CO)C(N)=O | Enterococcus faecalis |  |  | 40 strains |  | MBC50 | 16 µg/mL (≈ 5.45 µM) |
| C=CCNCCc1c[nH]c2cccc(O)c12.C=CCNCCc1c[nH]c2cccc(O)c12.O=C(O)/C=C/C(=O)O |  |  | C57BL/6J mice | subcutaneous, 0.03 mg/kg |  | head twitch count | 6.3 ± 0.9 |
| COc1cc2c(Oc3ccc4[nH]c(C)cc4c3F)ccnc2cc1OCC1(N)CC1 |  |  | paediatric recurrent refractory sarcoma | 12 mg |  | grade 1 or 2 abdominal distension | 9.1% |
| COc1c(CCC[P+](c2ccccc2)(c2ccccc2)c2ccccc2)cc2c(c1OC)OCO2.[I-] | NCI-H322M | SRB |  |  |  | GI50 | -5.5 log M |
| COc1cccc2c1C(=O)c1c(O)c3c(c(O)c1C2=O)C[C@@](O)(C(=O)CO)C[C@@H]3O[C@H]1C[C@H](N)[C@H](O)[C@H](C)O1 | SCC-40 | sulforhodamine B |  | 10 µg/mL, 48 h | negative means cell kill | growth percent | -73.7% |
| CN1CCN(C2(CNC3CCN(c4cccc(-c5cc6cc(F)ccc6[nH]5)c4)CC3)CCC2)CC1 | HCT-15 |  |  |  |  | CC50 | 4.39 µM |
| CC[C@H](C)[C@@H]1NC(=O)[C@@H]2CCCN2C(=O)[C@H](CC(C)C)NC(=O)[C@H](CC(C)C)NC(=O)CNC(=O)[C@@H](NC(=O)[C@@H](NC(=O)[C@H](CC(=O)O)NC(=O)CNC(=O)[C@@H](NC(=O)[C@H](C)NC(=O)CNC(=O)[C@H](CCCCN)NC(=O)[C@H](CC(C)C)NC(=O)[C@H](CC(C)C)NC(=O)[C@H](CCCCN)NC(=O)CNC(=O)[C@@H](NC(=O)[C@@H](N)CC(C)C)C(C)C)C(C)C)C(C)C)CSSC[C@@H](C(=O)O)NC1=O |  | RNA-seq, item: Hcst mRNA | mouse traumatic brain injury, frontal cortex and hippocampus | dose not given | reference: TBI plus compound vs TBI | log2 fold change | -2.67 |
| COc1cc(CCC[P+](c2ccccc2)(c2ccccc2)c2ccccc2)c(OC)c2c1OCO2.[I-] | NCI-H522 | SRB |  |  |  | GI50 | -5.84 log M |
| CC(C)N1CCC(NC2CCN(c3cccc(-c4cc5cc(F)ccc5[nH]4)c3)CC2)CC1 | NCI-H522 |  |  |  |  | GI50 | 1.43 µM |
| O=C(c1ccc(Cl)cc1)N1CCN2C(=O)N(OC(=O)N3CCOc4ccccc43)C(=O)C2C1 (stereo not drawn) | Probable serine carboxypeptidase CPVL (CPVL, Homo sapiens, UniProt Q9H3G5) | MS-based ABPP | SW-620 conditioned medium | 10 µM, 1 h, 37 °C | reference: compound over DMSO, lower = more inhibition | mean protein ratio | 1.09 |
| N=C(N)NCCC[C@@H]1NC(=O)[C@H](CCCCNC(=O)c2ccc(CNC34CNCCNCC(N)(CNCCNC3)CNCCNC4)cc2)NC(=O)[C@@H](Cc2ccc(O)cc2)NC(=O)[C@H](CC(=O)O)NC(=O)CNC1=O [copper-64 labelled] |  | ex vivo biodistribution | male athymic nude mouse, PC-3 tumour, blood | 7.4 MBq, 48 h |  | tissue uptake | 0.4 ± 0.07 %ID/g |
| C[C@H]1O[C@@H](O[C@H]2CC[C@@]3(C)[C@@H](CC[C@]4(C)[C@@H]3C=C[C@]35OC[C@@]6(CCC(C)(C)C[C@H]63)[C@@H](O)C[C@]54C)[C@]2(C)CO)[C@H](O)[C@@H](O[C@@H]2O[C@H](CO)[C@@H](O)[C@H](O)[C@H]2O)[C@H]1O |  | histology | AAV8 empty vector mice, liver | dose not given, high dose, normal diet |  | Oil Red O area | 0.0444% and 0.0396% and 0.0378% |
| CN1CCN(S(=O)(=O)c2cc([N+](=O)[O-])ccc2N(CCOS(C)(=O)=O)CCOS(C)(=O)=O)CC1 | sample DA T-ALL PDX cells | cell viability | ex vivo | 48 h, added: AKR1C3 inhibitor | reference: with inhibitor over alone | IC50 fold change | 280 |
| Cn1cc2cc(C(F)(F)c3nnc4ccc(-c5cnn(C6CC6)c5)nn34)c(F)cc2n1 | MKN-45 | annexin V/PI flow cytometry |  | 20 nM, 48 h |  | early apoptotic cells | 7.67% and 13.4% and 8.67% |
| Oc1ccc(C2(c3ccc(O)cc3)c3ccccc3-c3ccccc32)cc1 | HepG2 spheroids | MTS |  | 160 µM, 24 h | reference: solvent control | metabolic activity decrease | ~38% |
| CC(C)=CCC/C(C)=C/CCn1cc(C2CC2(P(=O)([O-])[O-])P(=O)([O-])[O-])nn1.[Na+].[Na+].[Na+].[Na+] (stereo not drawn) | MM.1S | item: unmodified Rap1a |  | concentration not given, 48 h |  | inhibition of geranylgeranylation | inactive |
| Cn1cncc1C1=CN(c2ncnc3[nH]cnc23)CCS1 | U-251 |  |  | CNS cancer |  | CC50 | > 200 µM |
| Nc1ncnc2c1ncn2[C@@H]1O[C@@H]2COP(=O)(O)O[C@H]3[C@@H](O)[C@H](n4cnc5c(=O)[nH]cnc54)O[C@@H]3COP(=O)(O)O[C@H]2[C@H]1O | HFF-1 | RNA sequencing Reactome analysis, item: Reactome R-HSA-6783783 interleukin-10 signaling |  | added: West Nile virus infection | reference: West Nile virus infected cells, upregulated pathway | pathway fold enrichment | 10.2 |
| O=c1c(O)c(-c2ccc(O)c(O)c2)oc2cc(O)cc(O)c12 | induced SH-SY5Y Aβ-GFP cells |  |  | 5 µM |  | neurite branch number | 1.8 to 2.1 |
| COP(=O)(OC)OC=C(Cl)Cl | human iPSC-derived cardiomyocytes | MyBP-C/MYH ratio, plate-normalised SD score |  | concentration not given, primary screen | direction not given | activity score | 3.3 |
| O=C([O-])CN1CCN(CC(=O)[O-])CCN(CC(=O)NCC2CCC(C(=O)N[C@@H](Cc3ccc4ccccc4c3)C(=O)NCCCC[C@H](NC(=O)N[C@@H](CCC(=O)O)C(=O)O)C(=O)O)CC2)CCN(CC(=O)[O-])CC1.[177Lu+3] (stereo partly drawn) | LNCaP (PSMA-positive) |  |  | concentration not given, added: 2-PMPA |  | uptake inhibition by 2-PMPA | 90% |

For quick reference, copied from above:
| Structure (SMILES) | target or system | test | test system | conditions | scale | measurement | result |
| --- | --- | --- | --- | --- | --- | --- | --- |
| CC[C@H](C)[C@H](NC(=O)CN)C(=O)NCC(=O)N[C@@H](C)C(=O)N[C@H](C(=O)N[C@@H](CC(C)C)C(=O)N[C@@H](CCCCN)C(=O)N[C@H](C(=O)N[C@@H](CC(C)C)C(=O)N[C@H](C(=O)N[C@H](C(=O)NCC(=O)N[C@@H](CC(C)C)C(=O)N1CCC[C@H]1C(=O)N[C@@H](C)C(=O)N[C@@H](CC(C)C)C(=O)N[C@H](C(=O)N[C@@H](CO)C(=O)N[C@@H](Cc1c[nH]c2ccccc12)C(=O)N[C@H](C(=O)N[C@@H](Cc1c[nH]cn1)C(=O)N[C@@H](Cc1c[nH]cn1)C(=O)N[C@@H](Cc1c[nH]cn1)C(=O)N[C@@H](Cc1c[nH]cn1)C(=O)N[C@@H](CCC(=O)O)C(=O)N[C@@H](CCC(=O)O)C(=O)N[C@@H](CS)C(N)=O)[C@@H](C)CC)[C@@H](C)CC)[C@@H](C)O)[C@@H](C)O)C(C)C)C(C)C | human red blood cells |  |  | pH 5.5 | reference: Triton X-100 | EC50 | 14 µM |
